Results pooled from the literature.
Each line is one published result; not all experiments were run side by side.

Under “subjects withdrawn for AEs”, `C[C@H]1CN(C(=O)CC#N)[C@]12CCN(c1ncnc3[nH]ccc13)C2` is recorded as 0% (healthy human; oral, 3 mg single).
`CC(C)n1c(Nc2cccnc2)nc2cnc(Nc3ccc(N4CCN(C)CC4)cc3)nc21`: “subjects with TEAE” 2.4% (measured: white blood cell count elevated; healthy human, male; oral, dose not given, CTCAE grade 1-3).
Under “subjects with epistaxis”, `Cc1cc(Nc2cc3ncccc3c(N[C@@H]3C[C@H]4CC[C@@H](C3)N4CCC#N)n2)n[nH]1` is recorded as 0% (healthy human; oral, 300 mg multiple doses, 14 days).
`CC(C)(C(=O)N1CCOc2c(C#N)cncc2C1)C(F)F` — result for “subjects with adverse event”: 0% (measured: conjunctival hyperaemia; human; oral, 10 mg once daily, 14 days, multiple ascending dose).
`C[C@@H](Oc1ccc(S(C)(=O)=O)cc1C(=O)N1C[C@@H]2C[C@]2(c2cc(C(F)(F)F)on2)C1)C(F)(F)F`: “subjects with related diarrhoea” 0% (human; oral plus intravenous microtracer, dose not given).
Under “subjects with breath odour”, `Cc1cc(-c2nccc3c2ccn3CC(=O)Nc2ccc(-c3cnccn3)cn2)ccn1` is recorded as 0% (human; 5 mg once daily, multiple ascending dose).
`CNC(=O)c1ccc(-c2cnc3ncc(Cc4ccc5ncccc5c4)n3n2)cc1F` — result for “subjects with adverse event”: 0% (healthy human subjects; oral, 400 mg, Dizziness, grade 3, all causality, together with: rifampicin 600 mg/day).
`CN1CCN(c2cccc3c2CCN(C(=O)/C=C/c2c(-n4cnnn4)ccc(Cl)c2F)[C@@H]3C(=O)Nc2ccc(C(=O)O)cc2)C(=O)C1`: “subjects with treatment-related adverse event” 0% (healthy human subjects; intravenous infusion, 10 mg/h, 2 h).

Repeated from above:
Under “subjects withdrawn for AEs”, `C[C@H]1CN(C(=O)CC#N)[C@]12CCN(c1ncnc3[nH]ccc13)C2` is recorded as 0% (healthy human; oral, 3 mg single).
